Measured values from different studies.
Lines come from different studies, so protocols differ.

SMILES | method | host | matrix | route | dose | notes | AUC(0-t)
Nc1nc(Cl)nc2c1ncn2Cc1cc(OCC(F)F)cc(OC(F)F)c1 |  | Sprague-Dawley rat | plasma | oral | 5 mg/kg |  | 20500 ng·h/mL
CSCOC1C(=O)C2(C)C(OCSC)CC3OCC3(OC(C)=O)C2C(OC(=O)c2ccccc2)C2(O)CC(OC(=O)C(O)C(C=C(C)C)NC(=O)OC(C)(C)C)C(C)=C1C2(C)C (stereo not drawn) |  | male Sprague-Dawley rat | plasma | intravenous | 1 mg/kg |  | 149 ng·h/mL
CN1CCN(c2ccc(Nc3ncc(Cl)c(Nc4ccccc4P(C)(C)=O)n3)cc2Br)CC1 |  | male Sprague-Dawley rat | plasma | oral | 25 mg/kg |  | 3100 ng·h/mL
Cn1cc(-c2cc(N3CCCCS3(=O)=O)ccc2N[C@H]2CC[C@H](C)CC2)c2cc[nH]c2c1=O (stereo in doubt) |  | Sprague-Dawley rat | plasma | oral | 3 mg/kg |  | 190 ng·h/mL
CC(=O)Oc1c2c(c3ccc4c(c3c1OC(C)=O)C=CC(=O)C4(C)C)OC[C@@H]2C |  | female Sprague-Dawley rat | serum | intravenous | 10 mg/kg |  | 15100 ng·h/mL
Cc1ccc(OCC(=O)N(Cc2cccs2)c2ccn[nH]2)cc1 |  | male Sprague-Dawley rat | plasma | intravenous | 1 mg/kg | single dose | 222 ng·h/mL
CCNC(=O)[C@@H]1CCCN1C(=O)[C@H](CCCNC(=N)N)NC(=O)[C@H](CC(C)C)NC(=O)[C@@H](CC(C)C)NC(=O)[C@H](Cc1ccc(O)cc1)NC(=O)[C@H](CO)NC(=O)[C@H](Cc1c[nH]c2ccccc12)NC(=O)[C@H](Cc1c[nH]cn1)NC(=O)[C@@H]1CCC(=O)N1 |  | male Sprague-Dawley rat | plasma | subcutaneous | 12.5 mg/kg | single dose | 9730 ng·h/mL
CC12CC3CC(C)(C1)CC(NC(=O)Nc1ccc(C(=O)N4CCCC(C(N)=O)C4)cc1)(C3)C2 (stereo not drawn) |  | Sprague-Dawley rat | plasma | oral | 10 mg/kg |  | 0.31 µM·h
N#Cc1cnc2cc(OCC3CCNCC3)c(F)cc2c1Nc1cc(F)c(OCc2cccc(Cl)n2)cc1Cl |  | male Sprague-Dawley rat | plasma | oral | 100 mg/kg |  | 2720 ng·h/mL
CNc1cc(C(=O)Nc2ccc(Cl)cc2)ccc1OC |  | male Sprague-Dawley rat | plasma | oral | 20 mg/kg | single dose | 7540 ng·h/mL
CNC(=O)N[C@]1(C)CCC[C@@]2(C)C3CC[C@@]4(C)C[C@]3(CCC21)CC4=O (single isomer, unassigned) |  | male Sprague-Dawley rat | plasma | oral | 2 mg/kg |  | 70.9 ng·h/mL
Cn1cc(-c2cc(N3CCCS3(=O)=O)ccc2N[C@H]2CC[C@H](C)CC2)c2cc[nH]c2c1=O |  | Sprague-Dawley rat | plasma | oral | 3 mg/kg |  | 97.3 ng·h/mL
COc1ccc2c(c1OCc1ccccc1)C[C@@H](C(=O)O)N(c1nc3ccc(F)cc3o1)C2 |  | male Sprague-Dawley rat | plasma | oral | 10 mg/kg |  | 29400 ng·h/mL
COc1cc(NC(C)=O)c2c(c1O)-c1c(OC)c(OC)cc3c1C(C2)N(C)CC3 (stereo not drawn) | HPLC | male Wistar rat | plasma | oral | 200 mg/kg |  | 57400 ng·h/mL
COc1ccc(COc2c(OC)ccc3c2C[C@@H](C(=O)O)N(c2nc4ccc(F)cc4o2)C3)cn1 |  | male Sprague-Dawley rat | plasma | oral | 10 mg/kg |  | 15200 ng·h/mL
CC12CC3CC(C)(C1)CC(NC(=O)Nc1ccc(C(=O)N4CCC[C@H](C(N)=O)C4)cc1F)(C3)C2 |  | Sprague-Dawley rat | plasma | intravenous | 10 mg/kg |  | 3.9 µM·h
O=C(N[C@@H](CC1CCCCC1)C(=O)N[C@@H](C[C@H]1CCNC1=O)C(=O)C(=O)NC1CC1)OCc1cccc(Cl)c1 |  | female Sprague-Dawley rat | plasma | intravenous | 10 mg/kg | single dose | 20500 ng·h/mL
COC(=O)c1ccc2c(c1)NC(=O)/C2=C(\Nc1ccc2c(c1)CCN2C(=O)CN1CCOCC1)c1ccccc1 |  | Sprague-Dawley rat | plasma | oral | 10 mg/kg |  | 6410 ng·h/mL
